Measured values pooled from the literature.
Each line is one published result; not all experiments were run side by side.
Target: Beta-2 adrenergic receptor (ADRB2, Homo sapiens, UniProt P07550)
Sequence of UniProt P07550 (whole entry, looked up): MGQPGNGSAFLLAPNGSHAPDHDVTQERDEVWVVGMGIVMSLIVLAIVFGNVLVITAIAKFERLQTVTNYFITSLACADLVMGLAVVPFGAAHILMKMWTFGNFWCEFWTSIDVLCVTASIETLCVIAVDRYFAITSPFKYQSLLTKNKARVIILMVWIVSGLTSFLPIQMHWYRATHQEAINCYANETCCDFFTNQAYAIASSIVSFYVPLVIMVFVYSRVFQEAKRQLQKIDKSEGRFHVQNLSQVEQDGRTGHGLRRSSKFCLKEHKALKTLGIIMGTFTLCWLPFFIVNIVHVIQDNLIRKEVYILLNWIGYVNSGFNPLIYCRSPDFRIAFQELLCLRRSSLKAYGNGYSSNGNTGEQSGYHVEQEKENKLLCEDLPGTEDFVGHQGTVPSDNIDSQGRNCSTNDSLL

O=C1c2sc(-c3ccc(N4CCC(F)C4)nc3F)nc2CCN1c1cccnc1 (stereo not shown)  inhibition (ligand displacement, radioligand; 1 µM): -5%
Cc1[nH]nc2c1N=C(c1ccccc1Cl)c1cnc(N3CCOCC3)cc1N2  inhibition (cell-free assay; 10 µM): -3%
c1ccc2c(NC3CCCCC3)nc(NC3CCCCC3)nc2c1  bias factor (β-arrestin2 recruitment, PathHunter and GloSensor; baseline: GloSensor IC50 over PathHunter IC50): > 12 fold
COc1ccc(C#CC2=C[C@H]3C[C@@]4(OC(=O)C=C24)[C@H]2CC[C@H](C(OC)OC)N32)cc1  inhibition (ligand displacement, radioligand; 10 µM): -6%
CNC(=O)C[C@H](Cc1ccc(C#N)cc1)NC(=O)c1cc(-c2ccc(CN[C@H](C)c3ccc(C)cc3)o2)ccc1Cl  inhibition (agonist response, antagonist; 2; 10 µM): -27%
COCC(=O)N1CCc2cc(-c3csc(NC(=O)c4cc(OC)cc(OC)c4)n3)ccc21  inhibition (cell-free assay; 10 µM): 4%
Clc1cccc(Nc2nc(NC3CCCCC3)c3ccccc3n2)c1  bias factor (β-arrestin2 recruitment, PathHunter and GloSensor; baseline: GloSensor IC50 over PathHunter IC50): > 8 fold
COc1ccc(C(=O)Nc2c(-c3cccs3)nc3ccccn23)cc1  inhibition (ligand displacement, radioligand; 10 µM): < 50%
CC(C)Cn1c(SCC(=O)N2CCc3ccccc3C2)nc2cc(Cl)ccc2c1=O  inhibition (ligand displacement, radioligand; 10 µM): -13%
Cc1ccc2nc(Nc3ccc(F)c(F)c3)nc(NC3CCCCC3)c2c1  bias factor (β-arrestin2 recruitment, PathHunter and GloSensor; baseline: GloSensor IC50 over PathHunter IC50): 47 fold
Cn1ccc2cc(-n3c(=O)[nH]c4sc5c(c4c3=O)CCCC5)ccc21  inhibition (cell-free assay, radioligand; 10 µM): -1%
COc1ccc(Nc2nc(NC3CCCCC3)c3ccccc3n2)cc1OC  bias factor (β-arrestin2 recruitment, PathHunter and GloSensor; baseline: GloSensor IC50 over PathHunter IC50): > 4 fold
CO[C@@H](C)c1c(NC(=O)Nc2cnc(-n3nccn3)c(C(F)(F)F)c2)cnc2sc(C)nc12  inhibition (ligand displacement, radioligand; 10 µM): 17.3%

A few entries again:
CO[C@@H](C)c1c(NC(=O)Nc2cnc(-n3nccn3)c(C(F)(F)F)c2)cnc2sc(C)nc12  inhibition (ligand displacement, radioligand; 10 µM): 17.3%
